Results collected from several papers.
Each numbered part is a random draw from the data of one study; scales do not carry over between parts. Substitutions count along the parent as printed.

Series 1 — target: CCND3, cyclin fold, Cln2 fusion (human); method: yeast growth competition, sequencing; medium: yeast; setting: weak parent motif; baseline: not given; reading: higher = stronger binding
Parent: RBL1 docking peptide (human); GSAKRRLFGEDPP
| Variant | normalised enrichment score |
| --- | --- |
| GSAKRRLFGEPPP [D11P] | -0.011 |
| GSAKRRLLGEDPP [F8L] | 0.189 |
| GSAKRRLFGEDPT [P13T] | 0.129 |
| GQAKRRLFGEDPP [S2Q] | 0.112 |
| GSAKTRLFGEDPP [R5T] | 0.0182 |
| GSAKRREFGEDPP [L7E] | 0.0892 |
| RSAKRRLFGEDPP [G1R] | 0.19 |
| GSAKRRLFHEDPP [G9H] | 0.0993 |
| GSAHRRLFGEDPP [K4H] | 0.0209 |
| GSAKFRLFGEDPP [R5F] | 0.00867 |
| GSAKCRLFGEDPP [R5C] | 0.13 |
| GSAKERLFGEDPP [R5E] | 0.0971 |
| GSAGRRLFGEDPP [K4G] | 0.108 |
| GSAKPRLFGEDPP [R5P] | 0.116 |
| GSVKRRLFGEDPP [A3V] | 0.114 |
| YSAKRRLFGEDPP [G1Y] | 0.313 |
| GSAKRRLFAEDPP [G9A] | 0.217 |

Series 2 — method: protein binding microarray; molecule type: double-stranded DNA, one strand shown; medium: in vitro; tested at: not given; baseline: not given; reading: higher = stronger binding
Target: Histone acetyltransferase KAT6A, both winged helices, GST fusion (KAT6A, Homo sapiens, UniProt Q92794, residues 1-181)
Setting: 8-mer, flanks averaged, mean of 2 arrays, mostly near background
Target sequence (chain): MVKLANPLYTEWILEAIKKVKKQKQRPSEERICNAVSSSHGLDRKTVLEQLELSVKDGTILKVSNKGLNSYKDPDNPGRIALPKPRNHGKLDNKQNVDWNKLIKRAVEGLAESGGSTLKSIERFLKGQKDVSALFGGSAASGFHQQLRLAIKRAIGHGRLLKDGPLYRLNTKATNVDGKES
| Oligonucleotide | E-score |
| --- | --- |
| GGCTAAAC | 0.0887 |
| AAGAGGTG | -0.101 |
| GTGACCAA | -0.205 |
| ACACTTGA | -0.156 |
| ATGCTTTC | -0.0326 |
| GTCCGTTA | 0.12 |
| GGCCGGCC | 0.304 |
| AGTGACTG | -0.0449 |
| GGGCGTTA | 0.0429 |
| CCCCTGTC | -0.113 |
| ACCGAGAG | -0.094 |
| AAATCATT | -0.0881 |
| CCTCGATC | -0.134 |
| TACGCAGA | 0.0218 |
| CTGTCGGA | 0.0605 |
| GCGCCGGA | 0.33 |
| AGCCTGCC | -0.0551 |
| TAATGGTA | -0.0918 |
| ACTAAATC | -0.0701 |
| TGTGACAA | -0.0595 |
| AGTAGCAA | 0.0582 |
| AACTGACT | -0.0224 |
| ATTTAGTA | -0.0149 |
| GAATGCAA | -0.0775 |
| AGAATGTC | -0.173 |

Series 3 — method: DHFR PCA, deep sequencing; medium: yeast; added: (+)-ABA 0.39 µM; baseline: wild-type fitted maximum; reading: higher = stronger binding
Target: ABI1, truncated, D143A, DHFR fusion (Arabidopsis thaliana)
Setting: methotrexate growth selection, single substitutions
Parent: PYL1, truncated, DHFR fusion (Arabidopsis thaliana); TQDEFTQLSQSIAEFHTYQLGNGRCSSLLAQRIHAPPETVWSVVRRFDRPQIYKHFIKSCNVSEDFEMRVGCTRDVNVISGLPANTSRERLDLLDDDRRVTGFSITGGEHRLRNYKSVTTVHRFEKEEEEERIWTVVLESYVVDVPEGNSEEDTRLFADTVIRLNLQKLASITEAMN; partner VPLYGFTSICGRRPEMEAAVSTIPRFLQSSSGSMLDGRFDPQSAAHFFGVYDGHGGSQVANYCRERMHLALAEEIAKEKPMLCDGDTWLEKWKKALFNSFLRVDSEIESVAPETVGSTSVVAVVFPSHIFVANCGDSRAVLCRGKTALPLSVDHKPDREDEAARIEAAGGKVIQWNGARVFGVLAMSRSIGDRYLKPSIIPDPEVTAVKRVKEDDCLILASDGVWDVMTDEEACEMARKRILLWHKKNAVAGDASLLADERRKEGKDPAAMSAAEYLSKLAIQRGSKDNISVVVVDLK
| Variant | relative binding score [%] |
| --- | --- |
| N114S | 8.5 |
| G23W | -5.77 |
| E129P | 60.8 |
| K168E | -9.59 |
| G108S | -4.92 |
| R111V | 8.29 |
| S87L | 31.4 |
| L91Q | -4.3 |
| R24C | 14.1 |
| I162Y | -24.4 |
| T101C | 26.1 |
| L112D | -5.47 |
| V142K | -13.3 |
| D159E | 12.1 |

Series 4 — method: RNA Bind-n-Seq; molecule type: RNA; medium: in vitro; tested at: 200 nM; setting: whole 134-nt RNA, ends assumed; added: 150 mM LiCl; baseline: input library; reading: higher = stronger binding; each molecule: 7-deaza-guanosine replaces G
Target: Fragile X messenger ribonucleoprotein 1, C-terminal low-complexity region (Fmr1, Mus musculus, UniProt P35922)
All sequences stand within: GGGAGUUCUACAGUCCGACGAUC … UGGAAUUCUCGGGUGUCAAGG
| Oligonucleotide | log2 enrichment |
| --- | --- |
| GCAGGAAGUAAAAACAAAUGGAAAUGCUUCGGAUAGAGGCAGGGGUGGGGGUUGCUAAGGAAAGGGUGGGAUGGGAGUGGGUAAAGAGUU | 1.61 |
| AAGUCCUGUGCUACACAUCGUAUGUACCGAAUCGGUUUUGGGGUUUUGGUUUUGGGAAAGUAUUAUGUUACGCCGUUCGGAUCUGCACUU | -1.92 |
| GUCCUGUGCUACACAUCGUAUGUACCGAAUCGGGGAAAAAGGGGUUUUUGGGGUGGGGAAAGUAUUAUGUUACGCCGUUCGGAUCUGCAC | -1.22 |
| UCCUCAAGUCCUGUGCUACACAUCGUAUGUACCGAAUCGGCGGGCGGGGCGGAAAGUAUUAUGUUACGCCGUUCGGAUCUGCACUUCCAG | 0.926 |
| CCUGUGCUACACAUCGUAUGUACCGAAUCGGUUUUUUGGGGUUUUUUGGGGUUUUUUGGGAAAGUAUUAUGUUACGCCGUUCGGAUCUGC | -0.655 |
| UCCUGUGCUACACAUCGUAUGUACCGAAUCGGGGAAAAAAAGGGGUGGGGUUUUUGGGGAAAGUAUUAUGUUACGCCGUUCGGAUCUGCA | -1.96 |
| GUCCUGUGCUACACAUCGUAUGUACCGAAUCGGGGAGGGGAAAAAAAGGGGAAAGGGGAAAGUAUUAUGUUACGCCGUUCGGAUCUGCAC | 1.41 |
| GUCCUGUGCUACACAUCGUAUGUACCGAAUCGGAAAAAAAGGUUUUUGGAAAAAAAGGAAAGUAUUAUGUUACGCCGUUCGGAUCUGCAC | -1.79 |

Series 5 — target: CREB3L1, bZIP domain (human); method: DHFR protein complementation; medium: yeast; baseline: wild-type JUN-FOS pair; reading: higher = stronger binding
Setting: single substitutions, most at no-binding floor
Parent: JUN, bZIP domain (human); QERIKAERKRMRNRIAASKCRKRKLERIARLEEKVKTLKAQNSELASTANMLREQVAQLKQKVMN; partner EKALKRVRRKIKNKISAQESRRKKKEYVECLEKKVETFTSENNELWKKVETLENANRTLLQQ
| Variant | binding fitness |
| --- | --- |
| V35D | -1.53 natural log |
| A40F | -1.53 natural log |
| S47W | -1.43 natural log |
| A29S | -1.46 natural log |
| E33H | -1.49 natural log |
| A29L | -1.52 natural log |
| A49F | -1.51 natural log |
| S47H | -1.15 natural log |
| K39R | -1.41 natural log |
| K39Y | -1.51 natural log |
| T37D | -1.51 natural log |
| A29C | -1.5 natural log |
| T48H | -1.31 natural log |
| L31C | -1.47 natural log |
| L52A | -1.56 natural log |
| L38V | -1.33 natural log |
| L31K | -1.51 natural log |

Other studies, line by line
| Molecule | target | assay | system | conditions | scale | endpoint | result |
| --- | --- | --- | --- | --- | --- | --- | --- |
| PhoQ, residues 284 288 289 292 302 303 SSTLLI | PhoP, residues 12 14 15 18 19 NMSSL (Escherichia coli, UniProt P23836) | Sort-seq, item: YFP reporter | E. coli | PhoQ-PhoP variant library, added: 10 µM Mg2+ | baseline: high Mg2+ state, higher = stronger signaling | fold induction | 16.9 |

Excerpt of the above (series 2):
| Oligonucleotide | E-score |
| --- | --- |
| GCGCCGGA | 0.33 |
| GTCCGTTA | 0.12 |
| ACACTTGA | -0.156 |
| GTGACCAA | -0.205 |
| CCCCTGTC | -0.113 |
